Experimental data gathered from unrelated publications.
A part holds a random share of what one study measured. Changes are numbered by the printed parent chain.

Study 1 — effect on: enzyme activity; action: inhibitor; tested at: 0.5 µM; relative to: control
Target: Proto-oncogene tyrosine-protein kinase receptor Ret (RET, Homo sapiens, UniProt P07949)
Sequence of UniProt P07949 (whole entry, looked up): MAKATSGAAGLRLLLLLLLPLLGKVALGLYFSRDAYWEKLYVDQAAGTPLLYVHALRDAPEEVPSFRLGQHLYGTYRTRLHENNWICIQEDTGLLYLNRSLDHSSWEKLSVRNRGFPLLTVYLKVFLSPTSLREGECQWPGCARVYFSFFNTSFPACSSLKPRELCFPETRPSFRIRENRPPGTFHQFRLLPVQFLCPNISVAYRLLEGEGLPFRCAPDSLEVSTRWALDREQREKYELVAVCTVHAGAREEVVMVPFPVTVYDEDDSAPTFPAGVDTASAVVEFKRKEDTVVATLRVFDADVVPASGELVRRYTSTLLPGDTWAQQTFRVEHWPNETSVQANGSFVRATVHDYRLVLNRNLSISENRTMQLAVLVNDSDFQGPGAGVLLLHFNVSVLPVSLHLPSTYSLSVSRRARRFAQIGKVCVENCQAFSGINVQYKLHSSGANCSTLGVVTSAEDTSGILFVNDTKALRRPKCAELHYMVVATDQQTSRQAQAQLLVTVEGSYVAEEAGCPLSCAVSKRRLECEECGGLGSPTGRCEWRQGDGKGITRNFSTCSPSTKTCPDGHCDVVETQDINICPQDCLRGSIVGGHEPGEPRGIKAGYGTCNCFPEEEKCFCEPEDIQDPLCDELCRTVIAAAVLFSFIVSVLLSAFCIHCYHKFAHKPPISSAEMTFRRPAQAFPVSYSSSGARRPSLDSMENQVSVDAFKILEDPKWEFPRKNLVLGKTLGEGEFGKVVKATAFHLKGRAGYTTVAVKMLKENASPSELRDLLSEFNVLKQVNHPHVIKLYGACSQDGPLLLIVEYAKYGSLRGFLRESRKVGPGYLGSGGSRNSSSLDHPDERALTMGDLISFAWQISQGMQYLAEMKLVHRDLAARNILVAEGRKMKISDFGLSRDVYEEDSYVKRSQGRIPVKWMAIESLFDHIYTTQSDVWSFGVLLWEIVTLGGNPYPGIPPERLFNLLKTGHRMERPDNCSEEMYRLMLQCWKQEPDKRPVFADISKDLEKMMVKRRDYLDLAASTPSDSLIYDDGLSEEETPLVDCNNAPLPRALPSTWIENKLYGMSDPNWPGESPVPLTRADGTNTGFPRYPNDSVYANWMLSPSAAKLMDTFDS
With `c1ccc(-c2n[nH]c3c2oc2ccccc23)cc1` the remaining activity was 78.2%.
`O=c1cc(N2CCOCC2)oc2c(-c3ccccc3)cccc12` has a remaining activity of 99.2%.
With `O=c1c(-c2ccc(F)cc2)c(-c2ccncc2)[nH]n1-c1ccc(Cl)cc1` the remaining activity was 99.6%.
For `N#Cc1cnc2cnc(NCc3cccnc3)cc2c1Nc1ccc(F)c(Cl)c1`, the remaining activity was 107%.
`O=C1c2ccccc2-c2nc3nnnn3nc21` has a remaining activity of 101%.
`CC(C)N(CCC(=O)c1ccc2ccccc2c1)Cc1ccccc1` gave a remaining activity of 101%.
`N#CC(c1ccnc(NCCc2cccnc2)n1)c1nc2ccccc2s1` (stereo not drawn) gave a remaining activity of 70.1%.
`CC(C)n1cnc2c(Nc3cccc(Cl)c3)nc(NCCO)nc21` gave a remaining activity of 82.9%.
`c1cc(-c2cnn3cc(-c4ccc(OCCN5CCCCC5)cc4)cnc23)ccn1` has a remaining activity of 32.2%.
With `CCCCc1c(-c2ccc(O)cc2)[nH]c2nccnc12` the remaining activity was 52.6%.
`CCCNC(=O)Nc1ccc(Oc2ncnc3cc(OC)c(OC)cc23)cc1Cl` gave a remaining activity of 8.42%.
`FC(F)(F)c1ccc(/C=C/c2nc(COc3ccc(CCCCn4ccnn4)cc3)co2)cc1` has a remaining activity of 101%.
For `O=Nc1c(-c2c(O)[nH]c3ccccc23)[nH]c2ccccc12`, the remaining activity was 8.05%.

Study 2 — method: EMSA with sequencing; form: double-stranded DNA, one strand shown; sample: in vitro; tested at: 10 and 20 nM; relative to: negative control set to 0; direction: higher = stronger binding
Target: Hepatocyte nuclear factor 3-alpha (Foxa1, Mus musculus, UniProt P35582, residues 1-468, full length assumed)
Sequence of UniProt P35582 (whole entry, looked up): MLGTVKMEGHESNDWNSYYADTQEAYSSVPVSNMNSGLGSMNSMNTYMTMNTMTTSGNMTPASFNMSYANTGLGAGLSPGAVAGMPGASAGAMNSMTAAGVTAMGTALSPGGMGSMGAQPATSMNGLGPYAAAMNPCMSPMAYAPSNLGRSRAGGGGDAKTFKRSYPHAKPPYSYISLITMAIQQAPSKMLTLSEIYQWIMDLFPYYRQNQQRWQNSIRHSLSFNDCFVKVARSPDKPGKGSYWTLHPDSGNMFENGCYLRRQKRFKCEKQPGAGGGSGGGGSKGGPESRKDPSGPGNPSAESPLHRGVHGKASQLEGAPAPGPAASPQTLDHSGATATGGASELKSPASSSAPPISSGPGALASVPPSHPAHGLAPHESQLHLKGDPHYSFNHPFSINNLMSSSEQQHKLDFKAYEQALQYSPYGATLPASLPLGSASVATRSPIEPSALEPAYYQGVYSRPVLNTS
Notes: whole designed probe, mean of two concentrations, ends assumed
Shared flanks, not repeated: GTGAGCGGTGCCCATTGATGGGGAAC … TTTCACTGGGATCGTGGGGAC
`CTTATAATATTTCTTATGATCACCAAGTCTAGTAAAAAATTAGATTATTATATATGAGTGAATCTCAGATTTATATGTGAATAATTCATCTATGTTTACTTAGGTAATTTCCCTTACTAATCCTAAAATAATACTTGAGGTAGCAGGAGATAACCAACTTTAAAATTCTGTATCTGCATTATGATTTCCATTT`: “normalised bound fraction” 0.445 ratio.
Under “normalised bound fraction”, `ATCTTCCCCCTCTTCCTTGCCCCACCAGCTCACCGGTCTGTCCTATTTGCAGATAGGAAAATAAATAAAGCCGGCATTCGTTAACCCTCTTCTGGCGCAAACTGCTGTTTGCTCTGGATGAATCATGGTCCTTTGGCGACGCCAGGCTCCGGGAGAGCAAAGCACCGTGTCAGGGCCATGATCCGGGGTGGCC` is recorded as 0.329 ratio.
Under “normalised bound fraction”, `ATCTTCCCCCTCTTCCTTGCCCCACCAGCTCACCTTCCCGGGTTATTTGCAGATAGGAAAATAAATAAAGCCGGCATTCGTTAACGCAGTTCTGGCGCAAACTGCTGTTTGCTCTGCATCTAACATGGTCCTTACGCGAGGCGTGGCTCCGGGAGAGCAAAGCACCGTGTCAGGCGCATGATCCGGGGTGGCC` is recorded as 0.364 ratio.
For `AAACAGCTCATGCTTATTATCTTATTACAGGAATGCCACTGGTTAAATCAGGCTCTGAATATAAATAGCCATATTACTGCCATCAGGCATCAATGTTTATTTAGTGGCTGTGAGTCATGCATACCTCTTTGATCGGGTTTGGAATGAGCCATTGCCGTTTTTGTTCAAAAAGGTTATTTGCAAAGGCTACAGA`, “normalised bound fraction” read 0.503 ratio.
Under “normalised bound fraction”, `TGTGTAAGATTAGCTATCTAAACATGAATAGCATTCTGAAGTGAAGGGAAAAAATTGACTTAAAATTTTAAAAGCATTAATATCATTTCAAAGTAATCTACAGGTCCTTTTAAAACGATTAGAGGATTATTTGTGCATTATTTTATGGGTCAAAATTTAAGCTTTTAAAAGAATAAAGTGATTTTTAAAAGAA` is recorded as 0.0369 ratio.
`GTGTGTGCGCGCGCGTGTGTGTGTGTTTTCTTAAGCCGGGCTATTCAAACCCTGCTGCAATTCAATGATTCATCTCCGGTAAAGGGGCACGTTTATTTGCATTAGATTGCAAACGGCGCGGTTCGCGCACTTTGCAGCCGGCCCGGTGGAGCAGCCAGTGCCGGATTTCTCCCTTTTTTTGCAGATCTGCAGA`: “normalised bound fraction” 0.421 ratio.
`TAGCTACATCCTCTCTCCCCACATCAAGGAAGTGGCACTTCAATCCCCACCCTTTGAGTGTGAACTGCACTTATGACACCTGAGGGAGGAAAAGTAATTTCGGTGGATCAACCTGGCAAACACTTTCTGACTCATACAGTCAAGGTTAATATCCACATGATAAGACATGTCGATCGCATACACCCCTGATATG`: “normalised bound fraction” -0.0404 ratio.
`CTCCACAATATTGCAATAAACTAAATATTATAATATGTTGGCTTTGATTATTCTGTGTCCTAAAATGTGCTTATTTTCTATTCTTTTTTGTCCTTGTTTACATTTAAAATTATACAACTGTCAGTGTTGATTTATAAGATAGAATGTACATATAAACTGGATCTCTGTCTCAGAGTAAGGAGGTGGAAAGAAA` — result for “normalised bound fraction”: 0.346 ratio.

Study 3 — effect on: ligand displacement; method: radioligand; tested at: 10 µM
Target: 5-hydroxytryptamine receptor 1B (HTR1B, Homo sapiens, UniProt P28222)
Sequence of UniProt P28222 (whole entry, looked up): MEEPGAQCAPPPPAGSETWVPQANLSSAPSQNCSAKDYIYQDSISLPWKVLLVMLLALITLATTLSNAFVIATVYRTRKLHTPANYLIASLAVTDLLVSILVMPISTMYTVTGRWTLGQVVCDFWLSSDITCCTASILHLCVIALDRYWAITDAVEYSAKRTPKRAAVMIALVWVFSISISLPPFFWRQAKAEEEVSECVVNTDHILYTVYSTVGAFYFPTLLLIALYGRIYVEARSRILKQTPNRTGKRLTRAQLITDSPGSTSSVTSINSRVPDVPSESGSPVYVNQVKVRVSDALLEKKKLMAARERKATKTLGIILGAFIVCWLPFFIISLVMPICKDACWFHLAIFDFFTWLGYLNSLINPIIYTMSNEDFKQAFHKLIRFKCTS
With `CCS(=O)(=O)c1cc2cc(C[C@](O)(CC(C)(C)c3ccc(F)cc3C(N)=O)C(F)(F)F)[nH]c2cn1` the inhibition was 9.55%.
With `O=C([C@H]1C[C@H](O)CN1c1ccc(Cl)cc1)N1CC2COCC(C1)N2Cc1ccc(Cl)cc1` the inhibition was -6.45%.
For `Cc1c(NC(=O)c2cc(C(N)=O)nc3cc(F)ccc23)c(C(F)(F)F)nn1Cc1ccc(C(C)(C)C)cc1`, the inhibition was -7.67%.
For `CCC(=N\O)/C(C)=C/c1ccc(F)cc1`, the inhibition was 7.88%.
`C[C@H](NC(=O)c1cnc2n1[C@](C)(Cc1ccc(C#N)cc1)C(=O)N2c1cc(Cl)c(F)c(Cl)c1)C(=O)NC1(c2ccccn2)CC1` gave an inhibition of 16.5%.
The inhibition of `Cc1ccc(-c2cnc([C@@]3(O)CC[C@H](C(=O)O)C(C)(C)C3)s2)cc1Nc1cccc(C(F)(F)F)n1` is reported as 20.2%.
`CC(=O)N1CCC(c2ccc(C(=O)NC(=N)N)cc2C(F)(F)F)CC1` gave an inhibition of 14.6%.
With `CCCCN(CCCC)C(=O)CN1C[C@H](c2cc(OC)c3c(c2)OCO3)[C@@H](C(=O)O)[C@@H]1CC(C)(C)CCC` the inhibition was 2.64%.
For `CCc1ccccc1C(=O)Nc1n[nH]c2c(C)c(F)c(C3C(C#N)=C(C)N(C)C(C)=C3C#N)cc12`, the inhibition was 9.48%.
`CN(C)C(=O)Cn1cc(-c2nc(C3(c4ccc(-c5cnc(N)nc5)cc4)CC3)no2)cn1` has an inhibition of -13.9%.
With `CC(=O)c1c(NS(C)(=O)=O)c2cc(-c3ccc(Cl)cc3)c(-c3ccc(Cl)cc3Cl)nc2n(C)c1=O` the inhibition was -2.36%.
For `O=C(NCc1ncc(C(F)(F)F)cc1Cl)c1ccc2c(c1)C1(CCS(=O)(=O)CC1)[C@H](C1CC1)N2S(=O)(=O)c1ccc(F)cc1`, the inhibition was -6.19%.
The inhibition of `CC1=C(C#N)[C@@H](c2ccc3[nH]nc(C)c3c2)C(C#N)=C(c2ccc(Cl)cc2)N1` is reported as 17.2%.
The inhibition of `CC(=O)Nc1c(C(C)=O)c(=O)n(C)c2nc(-c3ccc(Cl)cc3Cl)c(-c3ccc(Cl)cc3)cc12` is reported as 43.6%.
`Cn1nc(C(=O)NCc2ccc(C(=O)O)cc2)cc1-c1ccc2[nH]ccc2c1` gave an inhibition of 5.48%.

Study 4 — target: CCNE2, cyclin fold, Cln2 fusion (human); method: yeast growth competition, sequencing; sample: yeast; notes: weak parent motif; relative to: not given; direction: higher = stronger binding
Starting sequence: EXO1 docking peptide (human); KPECGRVQRAIFQ; partner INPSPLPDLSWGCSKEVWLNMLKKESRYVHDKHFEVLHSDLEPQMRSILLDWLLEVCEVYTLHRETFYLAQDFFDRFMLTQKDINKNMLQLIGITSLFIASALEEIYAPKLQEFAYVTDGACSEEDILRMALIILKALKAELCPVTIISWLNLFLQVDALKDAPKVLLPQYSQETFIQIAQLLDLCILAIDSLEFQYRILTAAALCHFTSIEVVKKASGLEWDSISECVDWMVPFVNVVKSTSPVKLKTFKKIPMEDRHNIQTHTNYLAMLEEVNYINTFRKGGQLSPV
Under “normalised enrichment score”, `P2A` is recorded as 0.0484.
Under “normalised enrichment score”, `V7A` is recorded as 0.191.
For `Q8A`, “normalised enrichment score” read 0.48.
Under “normalised enrichment score”, `E3A` is recorded as 0.3.
`K1A`: “normalised enrichment score” 0.226.
`G5A`: “normalised enrichment score” 0.208.

For quick reference, copied from above (study 1):
For `O=Nc1c(-c2c(O)[nH]c3ccccc23)[nH]c2ccccc12`, the remaining activity was 8.05%.
With `c1ccc(-c2n[nH]c3c2oc2ccccc23)cc1` the remaining activity was 78.2%.
With `O=c1c(-c2ccc(F)cc2)c(-c2ccncc2)[nH]n1-c1ccc(Cl)cc1` the remaining activity was 99.6%.
With `CCCCc1c(-c2ccc(O)cc2)[nH]c2nccnc12` the remaining activity was 52.6%.
`CCCNC(=O)Nc1ccc(Oc2ncnc3cc(OC)c(OC)cc23)cc1Cl` gave a remaining activity of 8.42%.
For `N#Cc1cnc2cnc(NCc3cccnc3)cc2c1Nc1ccc(F)c(Cl)c1`, the remaining activity was 107%.
`CC(C)N(CCC(=O)c1ccc2ccccc2c1)Cc1ccccc1` gave a remaining activity of 101%.
